Results pooled from the literature.
Parts stem from different laboratories: compare values within a part only.
Sequence of UniProt P35968 (whole entry, looked up): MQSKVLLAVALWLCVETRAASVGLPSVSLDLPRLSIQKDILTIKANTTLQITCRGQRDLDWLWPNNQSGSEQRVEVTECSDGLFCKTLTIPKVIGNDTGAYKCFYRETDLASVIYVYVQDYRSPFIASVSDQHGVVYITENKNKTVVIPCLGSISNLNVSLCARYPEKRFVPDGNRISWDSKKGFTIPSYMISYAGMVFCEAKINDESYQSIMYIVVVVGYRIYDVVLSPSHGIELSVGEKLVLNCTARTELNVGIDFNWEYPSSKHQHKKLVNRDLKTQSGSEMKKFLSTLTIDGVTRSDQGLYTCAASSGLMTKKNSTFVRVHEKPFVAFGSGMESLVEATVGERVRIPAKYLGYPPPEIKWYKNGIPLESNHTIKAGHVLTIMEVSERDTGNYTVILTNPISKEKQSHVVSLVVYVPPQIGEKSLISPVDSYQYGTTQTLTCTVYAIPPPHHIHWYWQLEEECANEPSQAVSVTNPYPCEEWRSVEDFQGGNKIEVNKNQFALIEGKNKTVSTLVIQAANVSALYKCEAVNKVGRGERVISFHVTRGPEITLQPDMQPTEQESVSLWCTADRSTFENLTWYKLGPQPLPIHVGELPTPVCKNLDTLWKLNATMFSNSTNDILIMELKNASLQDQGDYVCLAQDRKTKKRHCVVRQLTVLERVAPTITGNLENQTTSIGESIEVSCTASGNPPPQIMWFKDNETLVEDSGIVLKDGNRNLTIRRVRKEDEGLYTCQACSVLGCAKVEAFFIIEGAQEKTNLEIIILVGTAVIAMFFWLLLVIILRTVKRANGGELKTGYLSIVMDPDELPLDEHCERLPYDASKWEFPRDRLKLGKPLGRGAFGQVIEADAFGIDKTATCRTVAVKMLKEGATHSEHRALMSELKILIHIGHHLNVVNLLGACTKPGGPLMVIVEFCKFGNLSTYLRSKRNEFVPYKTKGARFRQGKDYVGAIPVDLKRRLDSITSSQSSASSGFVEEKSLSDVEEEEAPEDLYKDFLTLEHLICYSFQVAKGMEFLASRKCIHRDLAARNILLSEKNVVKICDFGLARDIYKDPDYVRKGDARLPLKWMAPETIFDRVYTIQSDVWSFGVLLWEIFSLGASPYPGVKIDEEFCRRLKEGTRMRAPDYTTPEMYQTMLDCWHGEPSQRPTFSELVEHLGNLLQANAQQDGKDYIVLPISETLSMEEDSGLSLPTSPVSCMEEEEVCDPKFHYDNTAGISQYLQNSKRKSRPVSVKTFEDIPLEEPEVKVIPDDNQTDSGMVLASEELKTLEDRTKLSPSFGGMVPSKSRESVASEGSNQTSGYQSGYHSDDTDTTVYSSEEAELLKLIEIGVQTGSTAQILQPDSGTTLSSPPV
Sequence of UniProt Q09013 (whole entry, looked up): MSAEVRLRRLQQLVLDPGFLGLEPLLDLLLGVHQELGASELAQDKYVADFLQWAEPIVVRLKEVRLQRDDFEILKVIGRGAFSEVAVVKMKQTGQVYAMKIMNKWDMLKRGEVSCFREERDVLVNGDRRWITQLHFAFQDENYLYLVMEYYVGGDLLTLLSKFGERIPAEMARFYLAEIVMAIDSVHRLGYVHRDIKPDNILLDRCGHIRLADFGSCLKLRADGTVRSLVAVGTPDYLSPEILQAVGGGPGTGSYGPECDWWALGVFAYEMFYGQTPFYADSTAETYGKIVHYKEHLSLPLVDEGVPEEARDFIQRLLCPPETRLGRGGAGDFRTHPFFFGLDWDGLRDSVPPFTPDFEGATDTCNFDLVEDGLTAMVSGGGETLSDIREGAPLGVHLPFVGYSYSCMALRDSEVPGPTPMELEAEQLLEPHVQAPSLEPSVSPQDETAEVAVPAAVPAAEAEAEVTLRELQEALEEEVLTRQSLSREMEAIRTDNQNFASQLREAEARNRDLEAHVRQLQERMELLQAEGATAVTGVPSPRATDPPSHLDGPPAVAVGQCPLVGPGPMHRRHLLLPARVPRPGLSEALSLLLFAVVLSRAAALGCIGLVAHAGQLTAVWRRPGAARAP
Sequence of UniProt P07947 (whole entry, looked up): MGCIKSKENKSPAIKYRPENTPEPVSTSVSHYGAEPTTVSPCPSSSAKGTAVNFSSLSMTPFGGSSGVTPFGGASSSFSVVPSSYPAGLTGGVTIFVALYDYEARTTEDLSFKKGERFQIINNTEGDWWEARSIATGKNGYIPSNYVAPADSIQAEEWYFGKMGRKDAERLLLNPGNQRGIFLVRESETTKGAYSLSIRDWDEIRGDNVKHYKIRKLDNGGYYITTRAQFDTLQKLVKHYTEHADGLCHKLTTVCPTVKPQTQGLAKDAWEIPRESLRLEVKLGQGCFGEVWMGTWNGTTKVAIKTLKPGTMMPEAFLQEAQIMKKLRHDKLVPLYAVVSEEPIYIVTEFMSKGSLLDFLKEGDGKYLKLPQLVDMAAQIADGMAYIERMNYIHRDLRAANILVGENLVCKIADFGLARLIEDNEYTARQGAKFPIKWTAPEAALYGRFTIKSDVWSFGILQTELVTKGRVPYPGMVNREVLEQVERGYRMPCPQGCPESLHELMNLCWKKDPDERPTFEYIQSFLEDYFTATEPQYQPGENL
Sequence of UniProt Q8IW41 (whole entry, looked up): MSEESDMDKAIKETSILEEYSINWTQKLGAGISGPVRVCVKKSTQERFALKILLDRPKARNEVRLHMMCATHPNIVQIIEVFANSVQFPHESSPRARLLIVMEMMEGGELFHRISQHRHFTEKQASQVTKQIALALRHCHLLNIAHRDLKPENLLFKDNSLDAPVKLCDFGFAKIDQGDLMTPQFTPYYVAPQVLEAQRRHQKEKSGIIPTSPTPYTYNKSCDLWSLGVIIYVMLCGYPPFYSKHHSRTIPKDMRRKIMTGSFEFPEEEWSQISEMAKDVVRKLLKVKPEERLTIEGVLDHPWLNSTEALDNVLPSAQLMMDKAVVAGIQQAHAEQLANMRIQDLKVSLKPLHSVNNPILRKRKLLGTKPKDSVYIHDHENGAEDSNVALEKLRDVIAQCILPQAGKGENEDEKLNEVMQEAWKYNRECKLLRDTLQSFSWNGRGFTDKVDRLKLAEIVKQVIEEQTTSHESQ
Sequence of UniProt P41146 (whole entry, looked up): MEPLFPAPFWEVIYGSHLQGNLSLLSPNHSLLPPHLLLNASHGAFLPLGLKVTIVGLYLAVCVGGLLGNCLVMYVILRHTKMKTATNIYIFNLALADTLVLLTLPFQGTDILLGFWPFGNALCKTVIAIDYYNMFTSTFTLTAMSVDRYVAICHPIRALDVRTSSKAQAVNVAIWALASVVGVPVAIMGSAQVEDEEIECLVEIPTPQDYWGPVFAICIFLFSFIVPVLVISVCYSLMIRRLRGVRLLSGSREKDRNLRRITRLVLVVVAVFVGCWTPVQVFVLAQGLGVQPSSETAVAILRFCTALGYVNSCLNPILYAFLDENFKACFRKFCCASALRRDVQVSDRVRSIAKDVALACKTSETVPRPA
Sequence of UniProt P05979 (whole entry, looked up): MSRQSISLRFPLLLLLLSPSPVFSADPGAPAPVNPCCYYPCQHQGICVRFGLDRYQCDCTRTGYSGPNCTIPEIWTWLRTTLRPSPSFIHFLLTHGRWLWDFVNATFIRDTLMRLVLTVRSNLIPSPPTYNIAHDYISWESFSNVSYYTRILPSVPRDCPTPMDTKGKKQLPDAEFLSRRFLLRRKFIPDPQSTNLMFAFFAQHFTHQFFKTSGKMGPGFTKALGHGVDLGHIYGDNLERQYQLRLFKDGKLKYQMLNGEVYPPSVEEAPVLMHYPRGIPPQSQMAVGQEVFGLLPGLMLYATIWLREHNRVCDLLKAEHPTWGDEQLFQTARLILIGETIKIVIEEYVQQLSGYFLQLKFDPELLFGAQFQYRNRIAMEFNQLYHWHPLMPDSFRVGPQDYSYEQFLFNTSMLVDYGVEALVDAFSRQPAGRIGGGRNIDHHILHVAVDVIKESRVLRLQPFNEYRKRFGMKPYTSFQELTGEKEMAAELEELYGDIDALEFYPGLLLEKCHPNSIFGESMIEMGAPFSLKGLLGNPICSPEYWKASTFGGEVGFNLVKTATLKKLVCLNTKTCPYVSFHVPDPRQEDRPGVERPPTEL
Sequence of UniProt P35372 (whole entry, looked up): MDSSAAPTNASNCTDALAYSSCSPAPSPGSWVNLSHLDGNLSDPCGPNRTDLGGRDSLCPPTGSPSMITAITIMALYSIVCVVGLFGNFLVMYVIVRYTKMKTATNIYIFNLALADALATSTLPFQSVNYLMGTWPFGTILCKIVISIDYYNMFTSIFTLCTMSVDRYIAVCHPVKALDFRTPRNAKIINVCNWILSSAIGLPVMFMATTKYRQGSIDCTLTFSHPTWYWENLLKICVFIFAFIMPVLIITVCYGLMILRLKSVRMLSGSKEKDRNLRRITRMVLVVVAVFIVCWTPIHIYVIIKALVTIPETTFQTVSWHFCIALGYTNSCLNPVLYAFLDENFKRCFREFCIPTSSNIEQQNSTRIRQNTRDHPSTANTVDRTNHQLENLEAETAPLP

Set 1
Target: Calcium/calmodulin-dependent protein kinase type II subunit alpha (CAMK2A, Homo sapiens, UniProt Q9UQM7)
Sequence of UniProt Q9UQM7 (whole entry, looked up): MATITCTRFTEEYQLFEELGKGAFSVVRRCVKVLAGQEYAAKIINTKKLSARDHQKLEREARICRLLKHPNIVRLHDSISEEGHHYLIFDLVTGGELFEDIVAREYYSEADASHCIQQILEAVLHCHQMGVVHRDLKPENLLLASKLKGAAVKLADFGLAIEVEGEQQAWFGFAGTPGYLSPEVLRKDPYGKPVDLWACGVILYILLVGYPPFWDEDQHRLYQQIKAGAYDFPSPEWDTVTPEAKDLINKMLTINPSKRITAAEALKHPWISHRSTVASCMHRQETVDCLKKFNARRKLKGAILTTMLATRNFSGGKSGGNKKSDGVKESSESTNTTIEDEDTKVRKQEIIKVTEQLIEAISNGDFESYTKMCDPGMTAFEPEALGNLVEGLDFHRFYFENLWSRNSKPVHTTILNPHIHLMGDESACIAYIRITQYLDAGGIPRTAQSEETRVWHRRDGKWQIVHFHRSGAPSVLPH
Read-out: enzyme activity
Mode: inhibitor
Tested at: 10 µM
Structure (SMILES) | inhibition
CC1=C2C(=CO[C@H](C)[C@H]2C)C(O)=C(C(=O)O)C1=O | -69%
CC(=O)[C@@]1(O)CC[C@H]2[C@@H]3CC=C4C[C@@H](O)CC[C@]4(C)[C@H]3CC[C@@]21C | 5%
C[C@H]1CC[C@@H]2N(C1)C[C@H]1[C@@H]3C[C@H]4[C@@H](CC(=O)[C@H]5C[C@H](O)CC[C@@]54C)[C@@H]3CC[C@H]1[C@]2(C)O | -13%

Set 2
SMILES: COC(=O)c1cc(N(C)C(=O)c2ccn3ncc(-c4ccc(C(=O)O)cc4)c3c2)ccc1Cl
target | assay | IC50
KDR (Homo sapiens, UniProt P35968) | enzyme activity, inhibitor | > 30 µM
SLC6A3 (Homo sapiens, UniProt Q01959) | cell-free assay | > 30 µM
MAPKAPK5 (Homo sapiens, UniProt Q8IW41) | enzyme activity, inhibitor | > 30 µM
OPRM1 (Homo sapiens, UniProt P35372) | cell-free assay | > 30 µM
PTGS1 (Ovis aries, UniProt P05979) | cell-free assay | > 30 µM
DRD1 (Homo sapiens, UniProt P21728) | cell-free assay | > 30 µM
KIT (Homo sapiens, UniProt P10721) | enzyme activity, inhibitor | > 30 µM
DMPK (Homo sapiens, UniProt Q09013) | enzyme activity, inhibitor | > 30 µM
ATM (Homo sapiens, UniProt Q13315) | enzyme activity, inhibitor | 10.2 µM

Set 3
Structure (SMILES): COc1ccc2c(c1)/C(=C/c1cnc[nH]1)C(=O)N2
Read-out: enzyme activity
Mode: inhibitor
Tested at: 0.5 µM
Relative to: control
target | remaining activity
Cyclin-dependent kinase 5, with p35 (CDK5, Homo sapiens, UniProt Q00535) | -0.369%
ACVRL1 (Homo sapiens, UniProt P37023) | 98.7%
YES1 (Homo sapiens, UniProt P07947) | 82.1%

Single results of other studies
Structure (SMILES) | target | assay | setting | quantity | result
CC(=O)c1c(NS(C)(=O)=O)c2cc(-c3ccc(Cl)cc3)c(-c3ccc(Cl)cc3Cl)nc2n(C)c1=O | Nociceptin receptor (OPRL1, Homo sapiens, UniProt P41146) | binding, radioligand binding | 10 µM | inhibition | -2.4%
CO[C@@H]1[C@H](N(C)C(=O)c2ccccc2)C[C@H]2O[C@]1(C)n1c3ccccc3c3c4c(c5c6ccccc6n2c5c31)C(=O)NC4 | DYRK1B (Homo sapiens, UniProt Q9Y463) | cell-free assay, inhibitor | 1 µM | inhibition | 93%
CN([C@@H]1CCc2c(CC(=O)O)c3ccccc3n2C1)S(=O)(=O)c1ccc(F)cc1 | CRK2 (Plasmodium falciparum, UniProt P61075) | cell-free assay, competition with immobilised ligand | 1 µM | remaining binding | 94%
C[C@H](NC(=O)c1cnc2n1[C@](C)(Cc1ccc(C#N)cc1)C(=O)N2c1cc(Cl)c(F)c(Cl)c1)C(=O)NC1(c2ccccn2)CC1 | HTR2C (Homo sapiens, UniProt P28335) | binding, radioligand binding | 10 µM | inhibition | 24.3%

Excerpt of the above (set 1):
Structure (SMILES) | inhibition
CC(=O)[C@@]1(O)CC[C@H]2[C@@H]3CC=C4C[C@@H](O)CC[C@]4(C)[C@H]3CC[C@@]21C | 5%
